Assay results pooled from the literature.
Every numbered part comes from another study and shows a few of its results, in no order. Changes are numbered by the printed parent chain.

Block 1
Target: RNA binding protein fox-1 homolog 2, RRM domain, GST-SBP tag (RBFOX2, Homo sapiens, UniProt O43251-10, residues 100-194)
Technique: RNA Bind-n-Seq
Form: RNA
Sample: in vitro
Tested at: 365 nM
Notes: natural RNA segment, single round, ends assumed
Baseline: no-protein control
Direction: higher = stronger binding
Shared flanks, not repeated: GGGAGUUCUACAGUCCGACGAUC … UGGAAUUCUCGGGUGCCAA
Construct (chain): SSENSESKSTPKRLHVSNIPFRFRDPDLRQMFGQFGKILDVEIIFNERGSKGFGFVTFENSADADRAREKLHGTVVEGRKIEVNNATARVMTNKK
Sequence	RBNS enrichment (R)
AGGUCUGUGUGCCCAUCAGCAGGUUCCCAUGGCUGUCACUGCCCACUCAUUUCCACAGUUAGAUACGGAUGUGUUGAUGUAUUUCGUCUAGUUUAUUUGGCUCAGUCCAC	0.985
UCUGUCAUGUUUAUUUAUUGGAUUCUCUGCUGCCUGAUCUGUACAUACAUGAUCCCUCGGGUUUUGUUUACAAGGAACCUUGACUGACCAAAAGGCAUUAUAACUCUGAC	0.399
AGCCCAGGUCCUCAAAGACACAGGAGGCUGCUGAUAUAGGCUGUUCCAGAGAUCCCUGUCUAGUCCCUGUGCAUCUCUUGGCAGUGACCUACUAUUUAUGAGGCCUCUGU	0.477
AAUUAGAGUCAUCGCACCAGGGUGCAAUUUUAAUUUAAAAACUUAAAAGACUUUUCUAACUUCCCUAGUUUGUGUUUUUGUUUUUGCUUUGGUGGGGAAGGUCAGUGGGG	4.36
UGCACAGCCACCUCAGCCAGCCCCCAGGUAGAAACGUGGGUUAAGCUCUUCCUGCCCCGUUCAGCUUCACUCCCACCCUUUCAGCGUCCUGCCCCUUCACCUUGACCCGG	0.91
AGGUUAGUGUUUAGCUCUACCAAACCUGAGUCAGCCGAAUGGAAGUUAUAUGGGCCUGUAACACAAACCUGAGUUUUAACCUAGUUCUAAUUUUAUAAGGCAUCUUAUUU	0.689
CCAGGACAGCCACAGUUGUACUGAGGGGGGCUGACAUGUUUGGCAUCCUGGCUAUAGUAUUGUAUACACAGGGCCACCAGCCCCGCCCUAGUGGUCAGCUCUGAGGGGGG	0.268
AAAGCAAACAGACUUAAGUUUCCUUGUAUUGAAGAUAACCUAUGACUGUAUGUUUUGCAUUCCUAGAAGCAGGUUAACUGUGUUUUUAAAUUGUUAUAACCACACCUUUU	0.356
UCAGAGUUAUUUGUUAAUUUUUAAGGAAAUUAUAUACUUAAUAUGUAUUGAUUAAAAGAAACAUUUCAGAAAUAAAAUUUCAACAUUGUUCAUUUUCUCUGAUAAAUCAG	0.796
GGGCCACCAGCCUCCCCUUCUUGUGGUGAGACUGAAUUUUGGGCUCAGACACCAGCAACAGCCUCUUGGGAUGCCCUGAGUUGCUUCCCAUUUCCUCUUUCUAGCCGUCC	0.345
GUUCGAGACUAGCCUGGCCAACAUGGUGAAACCCCAUCUCUACUAAAAAUACAACAGCCAGGUGUGAUGGUGCACGCUCGUAAUCCCGGCUACUCAGGAGGCUGAGGCAG	1.02
AUACUUCAACUGAUUAUCACACUUGAAAUGCUAAUUAUCAGUGGAAUUUGUCUCCUAUUCUUAAGUACUUCUGCAAGGUAUUAGAUGCUGCUCCUUACCAAAAAUCAGUC	0.339

Block 2
Target: ABI1, truncated, D143A, DHFR fusion (Arabidopsis thaliana)
Technique: DHFR PCA, deep sequencing
Sample: yeast
Notes: methotrexate growth selection, single substitutions
With: (+)-ABA 17 µM
Baseline: wild-type fitted maximum
Direction: higher = stronger binding
Parent: PYL1, truncated, DHFR fusion (Arabidopsis thaliana); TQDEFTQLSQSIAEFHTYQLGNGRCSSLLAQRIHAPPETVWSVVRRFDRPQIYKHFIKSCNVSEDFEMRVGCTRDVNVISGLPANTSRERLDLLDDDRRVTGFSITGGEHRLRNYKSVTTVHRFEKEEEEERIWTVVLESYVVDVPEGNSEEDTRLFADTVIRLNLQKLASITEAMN; partner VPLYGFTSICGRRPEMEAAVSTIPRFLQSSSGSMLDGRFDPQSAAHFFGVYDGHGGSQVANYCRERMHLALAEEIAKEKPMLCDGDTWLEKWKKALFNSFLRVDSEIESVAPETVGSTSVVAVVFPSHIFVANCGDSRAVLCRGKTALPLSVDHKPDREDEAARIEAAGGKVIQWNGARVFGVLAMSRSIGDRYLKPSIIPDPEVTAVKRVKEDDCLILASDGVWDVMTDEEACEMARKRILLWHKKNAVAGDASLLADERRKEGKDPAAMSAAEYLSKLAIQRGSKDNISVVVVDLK
Variant	relative binding score [%]
T135G	-0.778
L156D	65.1
A84P	20.7
E129L	79.4

Block 3
Target: Ras GTPase-activating protein-binding protein 1, full length (G3BP1, Homo sapiens, UniProt Q13283)
UniProt Q13283, sequence (whole entry, looked up): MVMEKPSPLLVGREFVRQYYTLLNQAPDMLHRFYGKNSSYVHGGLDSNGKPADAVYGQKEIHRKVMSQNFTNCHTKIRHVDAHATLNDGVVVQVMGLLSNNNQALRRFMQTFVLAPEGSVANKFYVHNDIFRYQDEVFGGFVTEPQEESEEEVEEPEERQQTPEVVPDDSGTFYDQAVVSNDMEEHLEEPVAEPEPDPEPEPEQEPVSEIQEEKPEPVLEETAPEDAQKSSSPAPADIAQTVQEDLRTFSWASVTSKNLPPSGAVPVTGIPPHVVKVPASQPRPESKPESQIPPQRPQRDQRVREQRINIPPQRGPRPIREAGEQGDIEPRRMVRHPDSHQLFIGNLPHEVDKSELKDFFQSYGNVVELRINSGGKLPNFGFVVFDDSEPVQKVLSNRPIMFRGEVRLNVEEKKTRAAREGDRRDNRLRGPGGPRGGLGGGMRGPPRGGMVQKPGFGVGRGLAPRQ
Technique: RNA Bind-n-Seq
Form: RNA
Sample: in vitro
Tested at: 200 nM
Notes: whole 134-nt RNA, ends assumed
With: 150 mM KCl
Baseline: input library
Direction: higher = stronger binding
Shared flanks, not repeated: GGGAGUUCUACAGUCCGACGAUC … UGGAAUUCUCGGGUGUCAAGG
Sequence	log2 enrichment
AAGUCCUGUGCUACACAUCGUAUGUACCGAAUCGGGGAGGGGAGGGGUUUUUGGGGAAAGUAUUAUGUUACGCCGUUCGGAUCUGCACUU	0.628
CUGUGCUACACAUCGUAUGUACCGAAUCGGAAAAAAAGGAAAAAAAGGGGAAAAAAAGGGGAAAGUAUUAUGUUACGCCGUUCGGAUCUG	-0.821
UCAAGUCCUGUGCUACACAUCGUAUGUACCGAAUCGGGAAAGGGGAAAGGAAAGGAAAGUAUUAUGUUACGCCGUUCGGAUCUGCACUUC	-0.872
AGUCCUGUGCUACACAUCGUAUGUACCGAAUCGGGGUGGGGAAAAAGGGGUUUGGGGAAAGUAUUAUGUUACGCCGUUCGGAUCUGCACU	0.309
GCAGGAAGUAAAAACAAAUGGAAAUGCUUCGGAUAGUGGCAGGGGUGGGGGUUGCUAAGGAAAGGGUCGGAUGGGAGUGGGUAAAGAGUU	1.12
CUGUGCUACACAUCGUAUGUACCGAAUCGGAAAAAAAGGGGAAAAAAAGGGAAAAAAAGGGGAAAGUAUUAUGUUACGCCGUUCGGAUCU	-0.757
UGUGGAGGAGACGGCCGACUCGACGCUGUGCCACAUCCUGAACCUGUACCGGCGGGCCACCUGGCUGCACCAGGCGCUGCGGGAGGGCAC	-0.901
UCCUCAAGUCCUGUGCUACACAUCGUAUGUACCGAAUCGGAGGGAGGGAGGAAAGUAUUAUGUUACGCCGUUCGGAUCUGCACUUCCAGC	-0.213
UGGCUUCGAAGUACAGUCUUUGCAGGAUGCAGGAAAUCAGCUUGGUAUGGAGGAUACAUCUCUGAGCUCUGGAAUGCUCACCCAGAACAC	-0.792
UGUGCUACACAUCGUAUGUACCGAAUCGGGGUUUUUUUGGUUUUUUUGGGGUUUUUUUGGGGAAAGUAUUAUGUUACGCCGUUCGGAUCU	-0.783
CAAGUCCUGUGCUACACAUCGUAUGUACCGAAUCGGAAAAGGAAAAGGGGAAAAGGAAAGUAUUAUGUUACGCCGUUCGGAUCUGCACUU	-0.812
CAAGUCCUGUGCUACACAUCGUAUGUACCGAAUCGGAAAGGAAAGGUUUUUUUGGAAAGUAUUAUGUUACGCCGUUCGGAUCUGCACUUC	-1.3
CCUCAAGUCCUGUGCUACACAUCGUAUGUACCGAAUCGGUUUGGAGGAAAGGAAAGUAUUAUGUUACGCCGUUCGGAUCUGCACUUCCAG	-0.00383
AAGUCCUGUGCUACACAUCGUAUGUACCGAAUCGGAAAAAAAGGUUUUUGGAAAGGAAAGUAUUAUGUUACGCCGUUCGGAUCUGCACUU	-1.72

Mixed results
Substance	target	test	test system	conditions	scale	quantity	value
PhoQ, residues 284 288 289 292 302 303 TTCLQL	PhoP, residues 12 14 15 18 19 QQAYL (Escherichia coli, UniProt P23836)	Sort-seq, refers to: YFP reporter	E. coli	PhoQ-PhoP variant library, with: 10 µM Mg2+	baseline: high Mg2+ state, higher = stronger signaling	fold induction	12.4

Excerpt of the above (block 3):
Sequence	log2 enrichment
AGUCCUGUGCUACACAUCGUAUGUACCGAAUCGGGGUGGGGAAAAAGGGGUUUGGGGAAAGUAUUAUGUUACGCCGUUCGGAUCUGCACU	0.309
GCAGGAAGUAAAAACAAAUGGAAAUGCUUCGGAUAGUGGCAGGGGUGGGGGUUGCUAAGGAAAGGGUCGGAUGGGAGUGGGUAAAGAGUU	1.12
